Measured values gathered from unrelated publications.
Each line is one published result; not all experiments were run side by side.
Method: shake flask

SMILES	system	conditions	logD
O=c1c2sccc2n(CC2COc3ccccc3O2)c(=O)n1O (stereo not shown)	aqueous buffer	pH 7.4	1.4
O=C1c2ccc3c4ccc5c6c(ccc(c7ccc(c2c37)C(=O)N1CCN1CCCCC1)c64)C(=O)N(CCN1CCCCC1)C5=O	aqueous buffer	pH 8	2.03
O=c1c2ccccc2n(CC2CC2)c(=O)n1O	aqueous buffer	pH 7.4	0.8
CC(C)(C)C12CC(CN3CCN(C(c4ccccc4)c4ccc(Cl)cc4)CC3)(C1)C2 (stereo not shown)	PBS	pH 7.4	3.3
O=C(O)C(Cc1c[nH]cn1)N1C(=O)c2ccc3c4ccc5c6c(ccc(c7ccc(c2c37)C1=O)c64)C(=O)N(CCN1CCCCC1)C5=O (stereo not shown)	aqueous buffer	pH 6	2.42
CCOC(=O)C12CC(N)(C1)C2	PBS	pH 7.4	0.1
NC(=O)CN(Cc1ccccc1)C(=O)CN(CCOc1cc(-c2ccccn2)nc(-c2ccccn2)c1)C(=O)CNCc1ccccn1	PBS	pH 7.4	0.519
CC1=C(CCO)C2=[N+]3C1=Cc1c(CCO)c(C)c4[n]1[Fe-2]31[n]3c(c(C)c(CCC(=O)O)c3=CC3=[N+]1C(=C4)C(C)=C3CCC(=O)O)=C2 (stereo not shown)	aqueous buffer	pH 9	0.12
CC(C)C[C@@H]1NC(=O)[C@H](C(C)C)NC(=O)[C@H](Cc2c[nH]c3ccccc23)NC(=O)[C@@H]2CSSC[C@H](NC(=O)[C@H](Cc3ccc(O)cc3)NC(=O)[C@H](C(C)C)NC(=O)[C@H](CCCNC(=N)N)NC(=O)CNC(=O)[C@H]3CCCN3C1=O)C(=O)N[C@@H](CCC(N)=O)C(=O)N1CCC[C@H]1C(=O)NCC(=O)N[C@@H](Cc1c[nH]c3ccccc13)C(=O)N2	aqueous buffer	pH 7.4	4.18
[11CH3]N(Cc1ccc(/C=C/C(=O)NO)cc1)CC12CC3CC(CC(C3)C1)C2	aqueous buffer	pH 7.4	2.03

Some of these lines once more:
SMILES	system	conditions	logD
CCOC(=O)C12CC(N)(C1)C2	PBS	pH 7.4	0.1
